Assay results gathered from unrelated publications.
A part holds a random share of what one study measured.

Set 1
Target: Ras GTPase-activating protein-binding protein 1, RRM domain (G3BP1, Homo sapiens, UniProt Q13283)
Chain of UniProt Q13283 (whole entry, looked up): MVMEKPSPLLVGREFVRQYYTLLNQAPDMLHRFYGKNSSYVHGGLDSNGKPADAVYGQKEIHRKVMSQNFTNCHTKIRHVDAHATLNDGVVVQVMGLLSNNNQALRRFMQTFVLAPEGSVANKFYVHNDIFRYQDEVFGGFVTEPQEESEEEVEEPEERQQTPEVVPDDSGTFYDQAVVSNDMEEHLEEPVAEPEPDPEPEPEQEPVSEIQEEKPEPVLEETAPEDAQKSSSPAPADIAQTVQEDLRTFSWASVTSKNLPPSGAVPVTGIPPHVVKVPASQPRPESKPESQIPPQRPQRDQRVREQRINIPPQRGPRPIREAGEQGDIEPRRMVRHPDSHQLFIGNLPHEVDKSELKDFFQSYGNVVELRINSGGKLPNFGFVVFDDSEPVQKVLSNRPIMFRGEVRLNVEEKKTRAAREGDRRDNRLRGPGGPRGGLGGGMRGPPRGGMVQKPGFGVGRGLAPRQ
Method: RNA Bind-n-Seq
Form: RNA
Medium: in vitro
Concentration: 1 µM
Notes: whole 134-nt RNA, ends assumed
With: 150 mM KCl
Reference: input library
Direction: higher = stronger binding
Shared flanks, not repeated: GGGAGUUCUACAGUCCGACGAUC … UGGAAUUCUCGGGUGUCAAGG
Sequence | log2 enrichment
UAACUUUAGAGGAGGAUCUGAUGGAUAUGGCAGUGGACGUGGAUUUGUGGAUGGCUAUAAUGGGUAUGGAGGAGGACCUGGAGGUGGCAA | -0.418
AGUCCUGUGCUACACAUCGUAUGUACCGAAUCAAACCCCCCCAAAUUUAAACCCAAAAAAGUAUUAUGUUACGCCGUUCGGAUCUGCACU | -0.0455
ACCAUGCAGGUGGGCAUCUUUGGGAAGUGGGGCAAGGGGGGGAUAGGGAGGGGGGUAACACUUUGGGAACAGGUGGUCCCGGGUCGUUUC | 0.668
AAGUCCUGUGCUACACAUCGUAUGUACCGAAUCGGGAAAGGGGAAAGGGGAAAGGGGAAAGUAUUAUGUUACGCCGUUCGGAUCUGCACU | 0.544
CAAGUCCUGUGCUACACAUCGUAUGUACCGAAUCGGAAAAAGGAGGAAAAAAAGGAAAGUAUUAUGUUACGCCGUUCGGAUCUGCACUUC | -0.0831
CACAGACAACACGCACCCACACAGACACAGAGGGAAGGGGUUGGGUUGGGGACAGGGUGCACAGCAGGGCGGGGUAGGACCCCAGCCCCU | -0.00646
GCAAAAAGUAAAAACAAAUGGAAAUGCUUCGGAUAGUGGCAGGGGUGGGGGUUGCUAAGGAAAGGGUGGGAUGGGAGUGGGUAAAGAGUU | 1.25
CCUGUGCUACACAUCGUAUGUACCGAAUCGGAAAAAAAGGAAAAAAAGGGAAAAAAAGGGGAAAGUAUUAUGUUACGCCGUUCGGAUCUG | 0.135

Set 2
Target: RING finger protein unkempt homolog, zinc fingers 1-6, GST-SBP tag (UNK, Homo sapiens, UniProt Q9C0B0, residues 30-357)
Chain of UniProt Q9C0B0 (30-357, looked up): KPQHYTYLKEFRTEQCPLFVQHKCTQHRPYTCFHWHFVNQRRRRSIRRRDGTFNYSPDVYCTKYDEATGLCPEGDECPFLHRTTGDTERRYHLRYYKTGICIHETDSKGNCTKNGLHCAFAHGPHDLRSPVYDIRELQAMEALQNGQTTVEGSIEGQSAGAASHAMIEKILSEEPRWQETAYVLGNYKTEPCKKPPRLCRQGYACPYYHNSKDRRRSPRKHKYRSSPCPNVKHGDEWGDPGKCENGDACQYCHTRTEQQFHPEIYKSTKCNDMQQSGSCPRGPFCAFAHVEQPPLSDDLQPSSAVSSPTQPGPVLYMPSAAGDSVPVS
Method: RNA Bind-n-Seq
Form: RNA
Medium: in vitro
Concentration: not given
Notes: RNA with constant flanks, human-mouse chimeric sites, ends assumed
Reference: input RNA pool
Direction: higher = stronger binding
Shared flanks, not repeated: GGGAGUUCUACAGUCCGACGAUC … CAACAGAGGAUUGAGCAUCA
Sequence | bound/input enrichment [ratio]
CCAAUUGUGGAGCAGUACUUGAAGACAAAAAAGAACUCUAAUAAUUUAAUCAUCAAGUACAUUAGCUGCCGCCUGCUGACACUCAUCAUUAUACUGUUGGCAUGUAUCUACCUGGGCUAU | 0.443
UCGGAUGCUGUGCUGGGUCACUUUUCAUAUCCAGAUCCUUCACAGUGGACAGAUGAAGAACUGGGAAUCCCUCCUGAUGACGAGGACUGAAGGUGUAAACUCUCUGGACGAGUAGGAGCA | 0.445
AUGGAGAAGGAUUCUCUGCCCCGCUUUGUGCGCUCUGAAUUUUAUAAGGAGCUAAUCAAGUAGUCAUCUGGUCAGGCUAUGAAAUCAUGCCCUGUGAGUUGAGUUACAUCCUUUGUAGCA | 0.302
GGCUGCUGGUGACUGUCGGGAGCCGUCUGGAGUUCCCGCCGGAGCGCGGCCAGACUAAUUUUAGAAAAUGCCAAGUAGGAAGUUUGUCGAUGGUGAAGUGGUCAGAGGCCGAUGGCCUGG | 1.34
CUGUGCGGGUGACUGUCCUGGAGUGGCUGGAGUUCCCGCCGGAGCGCGGCCAGACUAAUUUUAGAAAAUGCCAAGUAGGAAGUUUGUCGAUGGUGAAGUGGUCAGAGGCCGAUGGCCUGG | 1.2
UGUGCAUAUGAUGCUUGGAGAUGGUUUUGCAGAUGCAGAAAUCGCUGCAAGGUAAUCACAAUAGAUAAAAGUGGUAUUUUAAACCUUUGAAAUAAAUGGAUGUAACUGUACCUUGGUACA | 0.714
UCUUUAAAAAAAAAAUUACCUUUUCUGACAGUGCUUUAUGGAGUAAAGAUCCACGUUCAAGCUCAAAGAGCAAAGGCUCCGCAAACAGCUCAAACAUCUGAUGAAGAAAGAUUUCUGAGA | 0.139

Set 3
Target: Prothrombin, mature alpha-thrombin (F2, Homo sapiens, UniProt P00734)
Method: aptamer microarray, sandwich
Form: DNA with 2'F-ANA
Medium: in vitro
Concentration: 200 nM
Notes: whole 15-mer aptamer, many near background
With: Cy3 exosite-II aptamer, 400 nM
Direction: higher = stronger binding
Sequence: GGTTGGTGTGGTTGG
Modification | mean fluorescence intensity [a.u.]
2'F-ANA at 2 3 6 7 8 9 12 | 1180
2'F-ANA at 2 3 4 5 6 7 8 10 11 13 15 | 51.4
2'F-ANA at 4 5 6 7 8 9 13 15 | 49.1
2'F-ANA at 2 5 6 7 14 15 | 41.9
2'F-ANA at 4 9 10 12 13 | 108
2'F-ANA at 1 2 3 4 5 6 7 10 11 12 13 14 15 | 71.5
2'F-ANA at 2 5 7 10 14 | 47.6
2'F-ANA at 8 13 14 15 | 199
2'F-ANA at 1 4 5 6 7 8 9 13 15 | 48.4
2'F-ANA at 1 2 5 6 8 9 14 15 | 45.4
2'F-ANA at 1 2 4 8 11 12 13 15 | 195
2'F-ANA at 2 3 4 5 7 8 10 12 13 14 15 | 50.6
2'F-ANA at 1 2 5 6 7 8 9 11 12 13 15 | 84.9
2'F-ANA at 1 3 4 6 9 11 12 13 15 | 203
2'F-ANA at 2 3 9 10 11 12 13 14 | 294

Mixed results
Molecule | target | test | system | conditions | scale | endpoint | value
PhoQ, residues 284 288 289 292 302 303 SACGEM | PhoP, residues 12 14 15 18 19 LHATL (Escherichia coli, UniProt P23836) | Sort-seq, item: YFP reporter | E. coli | PhoQ-PhoP variant library, with: 10 µM Mg2+ | reference: high Mg2+ state, higher = stronger signaling | fold induction | 24.3

Excerpt of the above (set 2):
Sequence | bound/input enrichment [ratio]
CUGUGCGGGUGACUGUCCUGGAGUGGCUGGAGUUCCCGCCGGAGCGCGGCCAGACUAAUUUUAGAAAAUGCCAAGUAGGAAGUUUGUCGAUGGUGAAGUGGUCAGAGGCCGAUGGCCUGG | 1.2
CCAAUUGUGGAGCAGUACUUGAAGACAAAAAAGAACUCUAAUAAUUUAAUCAUCAAGUACAUUAGCUGCCGCCUGCUGACACUCAUCAUUAUACUGUUGGCAUGUAUCUACCUGGGCUAU | 0.443
UCGGAUGCUGUGCUGGGUCACUUUUCAUAUCCAGAUCCUUCACAGUGGACAGAUGAAGAACUGGGAAUCCCUCCUGAUGACGAGGACUGAAGGUGUAAACUCUCUGGACGAGUAGGAGCA | 0.445
AUGGAGAAGGAUUCUCUGCCCCGCUUUGUGCGCUCUGAAUUUUAUAAGGAGCUAAUCAAGUAGUCAUCUGGUCAGGCUAUGAAAUCAUGCCCUGUGAGUUGAGUUACAUCCUUUGUAGCA | 0.302
